Measurements pooled from the literature.
A part holds a random share of what one study measured.

Series 1
Target: Probable WRKY transcription factor 33, C-terminal DNA-binding domain (WRKY33, Arabidopsis thaliana, UniProt Q8S8P5, residues 346-449)
Technique: DNA-protein interaction ELISA
Form: double-stranded DNA, one strand shown
Sample: in vitro, bacterial lysate
Tested at: not given
Setting: whole dsDNA probe, crude lysate protein
Reference: highest signal in screen
Direction: higher = stronger binding
Measurement: relative absorbance
Target sequence (chain): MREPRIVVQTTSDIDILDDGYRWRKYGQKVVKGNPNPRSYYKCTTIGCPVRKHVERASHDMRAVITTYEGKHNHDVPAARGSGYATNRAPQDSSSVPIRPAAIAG
AAAAAACGGAAGATCGTGACTGCTAGAAAA: 31.3 % of maximum
AAAAAATATGGCACTCGCCGCACATCAAAA: 43 % of maximum
AAAAAACCTTCCCCCTCTTCTGCCTTAAAA: 30.4 % of maximum
AAAAAACTGACCGTCAGCGCCCACGCAAAA: 88.2 % of maximum
AAAAAAAATTAGTCTCTTCGTCTCCCAAAA: 84.6 % of maximum
AAAAAATCAGTCTGAGACTTACAACTAAAA: 71.8 % of maximum
AAAAAAGCTGTCACTGTAGTCGGTCCAAAA: 38.9 % of maximum
AAAAAAACGGGTTGTGAATGTGGAAGAAAA: 41.3 % of maximum

Series 2
Target: Interferon regulatory factor 5, full length, phosphomimetic (IRF5, Homo sapiens, UniProt Q13568-2, residues 1-514, K96S/S451D/S453D/S456D/S462D)
Technique: protein-binding microarray
Form: double-stranded DNA, one strand shown
Sample: in vitro
Tested at: 250 nM
Setting: 60-bp whole probe
With: salmon DNA 0.4 mg/ml
Reference: random background probes
Direction: higher = stronger binding
Measurement: log fluorescence
Shared flanks, not repeated: GCCTAGCAC … GTCTTGATTCGCTTGACGCTGCTG
CTAGGTATCGGACTGGGTTAGTGCTAG: 1.16 z-score
TCATTTCTCCTTTGTAAACTGTGCTAG: 1.92 z-score
TTAGGTATCCTTAGCCTTTAGTGCTAG: -0.222 z-score
TCACCTTTCTCCATGGGACTGTGCTAG: 0.741 z-score
GACGGTTTCGGTTCCGAGACGTGCTAG: 9.01 z-score
GACGATCTCAGTATCGAGCCGTGCTAG: 1.15 z-score
TTACAACTGGGGACTGGATTAGTGCTA: 0.0813 z-score

Series 3
Target: Prothrombin, mature alpha-thrombin (F2, Homo sapiens, UniProt P00734)
Technique: aptamer microarray, sandwich
Form: DNA with 2'F-ANA
Sample: in vitro
Tested at: 200 nM
Setting: whole 15-mer aptamer, many near background
With: Cy3 exosite-II aptamer, 400 nM
Direction: higher = stronger binding
Measurement: mean fluorescence intensity
Oligonucleotide: GGTTGGTGTGGTTGG
2'F-ANA at 3 5 7 8 9 12 14: 64.6 a.u.
2'F-ANA at 2 3 6 8 9 10 11 13 14: 231 a.u.
2'F-ANA at 1 3 5 8 9 10 11 12 15: 52.9 a.u.
2'F-ANA at 1 2 5 8 10 11 13 14 15: 50.2 a.u.
2'F-ANA at 1 3 4 5 6 13 14: 44.9 a.u.

Single results of other studies
PhoQ, residues 284 288 289 292 302 303 NLAAMI  fold induction (PhoP, residues 12 14 15 18 19 TPLRH (Escherichia coli, UniProt P23836); Sort-seq, measured: YFP reporter; E. coli; PhoQ-PhoP variant library, with: 10 µM Mg2+; reference: high Mg2+ state, higher = stronger signaling): 4.66
